Assay results of several laboratories.
Lines come from different studies, so protocols differ. “And” joins repeats or separate records; there may be more than shown. ± marks the error that the study gave.

COc1cccc(-c2n[nH]c(SCc3ccccn3)n2)c1OC — structural aberrations per 100 cells (primary human lymphocytes; 0.25 mg/mL, 3 h): 0.5
CC1=CC[C@H]2[C@@H]([C@@H]1CC[C@H]1[C@]3(C)CC[C@H](O)C(C)(C)O[C@H]3CC[C@]1(C)O)C(C)(C)CC[C@]2(C)O — IC50 (ABCG2-482-R2 transfected HEK293; cell viability, MTT; 72 h): > 50 µM
C[C@@H]1O[C@@H](O[C@H]2[C@H](Oc3cc(O)c4c(c3)O[C@H](c3ccc(O)cc3)CC4=O)O[C@H](CO)[C@@H](O)[C@@H]2O)[C@H](O)[C@H](O)[C@H]1O — efflux ratio (Caco-2 monolayers; 100 µg/mL, 2 h; relative to: Papp(BL-AP) over Papp(AP-BL)): 0.38 ± 0.05
O=C(C[C@@H](C(F)F)n1ccc(F)n1)N1CCC(O)(Cn2cnc3c(cnn3-c3ccc(F)cc3)c2=O)CC1 — viability (CAPAN-1 parental; SRB; 0.02744 µM, 5 days): 72.8% and 66.3%
CCCC(CCC)NC(=O)c1ccc2c(c1)OCO2 — cells with aberrations (CHO-WBL; 0.19 mg/mL, without S9, exposure): 0.5%
COc1cc(/C=C/C=C2\SC(=S)NC2=O)cc(OC)c1O — viability (HEK-293T; CellTiter-Glo; 40 µM, 24 h, unit not given; relative to: untreated): 1.03 and 0.958
COc1cc(C2Oc3cc([C@H]4Oc5cc(O)cc(O)c5C(=O)[C@@H]4O)ccc3OC2CO)ccc1O (stereo partly shown) — amount transported (Caco-2 monolayers; apical to basolateral transport; 100 µg/mL, 2 h): 15 ± 1%
Cc1noc(C)c1Cn1cc(N2C(=O)CN(Cc3cccc(O)c3)C2=O)cn1 — aberrant cells with gaps (human blood lymphocytes; 823.8 µg/mL, 3 h): 2.5%
COc1ccc(CCC(=O)c2c(O)cc(O[C@@H]3O[C@H](CO)[C@@H](O)[C@H](O)[C@H]3O[C@@H]3O[C@@H](C)[C@H](O)[C@@H](O)[C@H]3O)cc2O)cc1O — amount transported (Caco-2 monolayers; basolateral to apical transport; 100 µg/mL, 2 h): 7.29 ± 3.2%
O=C(CS)NCCCCCC(=O)Nc1cccc2cccnc12 — efflux ratio (Caco-2 monolayers; together with: indomethacin 140 µM; relative to: B-A over A-B): 0.77

Some of these lines once more:
COc1cc(/C=C/C=C2\SC(=S)NC2=O)cc(OC)c1O — viability (HEK-293T; CellTiter-Glo; 40 µM, 24 h, unit not given; relative to: untreated): 1.03 and 0.958
